# Experimental data pooled from the literature.
# Every numbered part comes from another study and shows a few of its results, in no order. Positions count from the first letter of the parent shown.

# Set 1
# Target: RING finger protein unkempt homolog, zinc fingers 1-6, GST-SBP tag (UNK, Homo sapiens, UniProt Q9C0B0, residues 30-357)
# Technique: RNA Bind-n-Seq
# Form: RNA
# Medium: in vitro
# Tested at: not given
# Setting: RNA with constant flanks, human and mouse sites, ends assumed
# Baseline: input RNA pool
# Direction: higher = stronger binding
# All sequences stand within: GGGAGUUCUACAGUCCGACGAUC … CAACAGAGGAUUGAGCAUCA
# Residues (chain): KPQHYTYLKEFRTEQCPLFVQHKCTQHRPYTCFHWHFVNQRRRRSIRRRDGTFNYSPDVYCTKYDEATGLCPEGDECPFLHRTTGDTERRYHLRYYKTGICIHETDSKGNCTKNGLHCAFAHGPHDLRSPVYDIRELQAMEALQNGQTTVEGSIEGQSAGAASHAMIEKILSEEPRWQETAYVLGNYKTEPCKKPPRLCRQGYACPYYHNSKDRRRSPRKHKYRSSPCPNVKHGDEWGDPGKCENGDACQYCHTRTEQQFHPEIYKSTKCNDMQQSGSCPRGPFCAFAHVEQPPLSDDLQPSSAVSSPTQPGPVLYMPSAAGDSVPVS
Sequence,bound/input enrichment
GAAACAUUUAAUGAAGAUGACUCGGACAUAGGCAGAGCUGGCCACAGUAUGCGAAAAUACUUUGAAAAAAAGUGGACAGAUACCUUCAAAGUGAGCUGAAGUUGUAAUCUCCUUUUUCUC,0.17 ratio
AGAUUCGUUCAGAAAUGCGUUCUUCCAUUAAAUGAGGAUAGUCCGUUGAUGUAUCAGCCACAAAAAAUGGACUUGACUAUGCACUCAGCCUUAGAUUGUAAGCAAAAGAAAUCAAGGUCA,0.0587 ratio
CAGCAAGUAGAGGCCAUUAAGAAAGAGAUGCAGGAAUUGAAGCUAAAUAGCAAUAACUCUGCAUCCCCUCAUCGCUGGCCGGCAGAGCCUUACGGACAAGACCCAGCUCCUGACGGAUAU,0.108 ratio
CCCAACUCCUCUUCAGGACUCACUCCUCUCAGCACCACCGCGCCGAGCAUGUUCUCUGCUGACUUUCUAGACCCACAGGACCUACCGCUGCCAUGGGACUAACGUCACAGAUUUCUUUUC,0.282 ratio
GUUUCGUCUUGUAUCCCCAAAAUAUUAGCUGAAGAAAGUUAUCUUUAUAAACAUGAUAUUAUAAUGCCUCCUUUACCUUUUACUUCUAAAGUUCAUGUCCAAACUAUUAAUGCCAAGUAG,4.2 ratio
UCUCCCCUCGAAAUUGUUGAAAUGUUUGCGGGACUUUCUUGUUUCCUCAAAGACUCCAGUGAUGUUUCCCAAACACUGCUGGAUGAUUUUCGGAUAUGGCAAGGAUAUAACUUUCUUUGU,0.218 ratio
GUGUCCACCUCAGCAGGGGGAAUAAUGACUGCACCAGCCAUUGACAUAUUUUCUACCCCUAGUUCUUCUAACAGCACAUCUAAGCUGCCAAAUGACCUGCUUGACUUGCAGCAGCCAACC,0.29 ratio
UCCGAACACAAAAUCUUAUUCCUUGGAGCAGGAGAGGCUGCUCUUGGAAUUGCAAAUCUUAUAGUUAUGUCUAUGGUAGAAAAUGGCCUGUCAGAACAAGAGGCACAAAAGAAAAUCUGG,0.835 ratio
GAAGUCAGAAAGAAAUGUGCUGAGGAGGCCCAACUGAUCUCUUCUCUGAAAGCUGAAUUAACUAGUCAGGAAUCGCAGAUCUCCACUUACGAAGAAGAAUUGGCAAAAGCUAGAGAAGAG,0.298 ratio
GAUGUUCUGCCUACUCAGAUCUAUCCUCUCCCCAAGCAGCAGAACCUUCCCAAGAGACCUACUAGUUUGCCUUUGAACACCAAAAAUUCAACAAAAGAGCCCCGGCUAAAAUUUGGCAGC,0.59 ratio
UGGAUCGAGGGUGAUGAACUUCACCUGGAAAUGAGAGCUGAGGGUGUGAUCUGCAAGCAAGUGUUUAAGAAAGUACACUGAGCAGCCCGAACAGCCCGAGGAGAUAACCUUGGUCUUCAG,0.053 ratio

# Set 2
# Target: CCNE2, cyclin fold, Cln2 fusion (human)
# Technique: yeast growth competition, sequencing
# Medium: yeast
# Setting: weak parent motif
# Baseline: not given
# Direction: higher = stronger binding
# Starting sequence: ORC1 docking peptide (human); PRARKRLELGNLG; partner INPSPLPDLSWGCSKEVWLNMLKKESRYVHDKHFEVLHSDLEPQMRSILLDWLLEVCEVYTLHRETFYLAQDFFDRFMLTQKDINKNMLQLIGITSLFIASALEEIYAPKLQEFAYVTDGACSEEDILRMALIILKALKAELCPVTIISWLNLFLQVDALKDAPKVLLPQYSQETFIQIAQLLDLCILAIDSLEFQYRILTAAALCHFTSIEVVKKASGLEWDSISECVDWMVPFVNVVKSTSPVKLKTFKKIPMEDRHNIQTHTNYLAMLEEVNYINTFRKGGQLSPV
Change,normalised enrichment score
PRARKMLELGNLG [R6M],0.653
PIARKRLELGNLG [R2I],1.65
PRERKRLELGNLG [A3E],1.38
PRAAKRLELGNLG [R4A],0.167
FRARKRLELGNLG [P1F],-0.522
NRARKRLELGNLG [P1N],1.15
PRGRKRLELGNLG [A3G],-0.861
PRARKRLELGSLG [N11S],0.26
LRARKRLELGNLG [P1L],0.156
PRARKRLELGNLT [G13T],0.442
PRARKNLELGNLG [R6N],0.00402
PRARKRLELGNDG [L12D],-0.176
PRARKRLELGNLQ [G13Q],-0.0484
PGARKRLELGNLG [R2G],-0.13
PRARKRLELYNLG [G10Y],1.91
PRARKREELGNLG [L7E],0.266
PRARKKLELGNLG [R6K],-0.227

# Set 3
# Target: Interferon regulatory factor 5, full length, phosphomimetic (IRF5, Homo sapiens, UniProt Q13568-2, residues 1-514, S451D/S453D/S456D/S462D)
# Technique: protein-binding microarray
# Form: double-stranded DNA, one strand shown
# Medium: in vitro
# Tested at: 940 nM top
# Setting: 60-bp whole probe
# Together with: salmon DNA 0.4 mg/ml
# Baseline: random background probes
# Direction: higher = stronger binding
# All sequences stand within: GCCTAGCAC … GTCTTGATTCGCTTGACGCTGCTG
Sequence,fitted relative affinity [z-score]
GACGATTCCAGTTTCGACACGTGCTAG,5.05
TCAACTTCCCAATTGTCACTGTGCTAG,0.589
TCAATTGTGGATCTTGCACTGTGCTAG,-0.403
ATCTTTTTCCTAATTGAACCGTGCTAG,0.75
GACGGTTTCGGTTTTCGGGACGTGCTA,12.6
GACTGTTTCCTTATCCTGACGTGCTAG,1.49
GACGAACTGGGGTACCGAGACGTGCTA,0.0828
ATAGATTTCAGTTCCGATTAGTGCTAG,2
TTAGGACTGGGTATCGGTTAGTGCTAG,3.31
TTAGGCCTCGGTCTCGGTTAGTGCTAG,1.65
GACGGATTCGGTCTCGGGACGTGCTAG,1.44
CAAACACTGGTTTTTACTTTGTGCTAG,-0.0916
GCCGGTATCCTTTTCCTGACGTGCTAG,0.916
TTAGGTTTCGACTATCGTTTAGTGCTA,9.66
AACGGACTGGGACTGGGGACGTGCTAG,-0.587
GTGAGTCCCAAGAATGGTGTGGTGCTA,-0.375

# Single results of other studies
Molecule,target,test,test system,conditions,how to read,endpoint,value
"PhoQ, residues 284 288 289 292 302 303 TYGVAM","PhoP, residues 12 14 15 18 19 QWHVF (Escherichia coli, UniProt P23836)","Sort-seq, refers to: YFP reporter",E. coli,"PhoQ-PhoP variant library, together with: 10 µM Mg2+","baseline: high Mg2+ state, higher = stronger signaling",fold induction,4.33

# For quick reference, copied from above (set 2):
Change,normalised enrichment score
FRARKRLELGNLG [P1F],-0.522
PRARKRLELGSLG [N11S],0.26
PRARKRLELGNDG [L12D],-0.176
PRARKNLELGNLG [R6N],0.00402
PRERKRLELGNLG [A3E],1.38
PRARKRLELYNLG [G10Y],1.91
